Results collected from several papers.
Lines come from different studies, so protocols differ. Numbers after ± are the reported error.
Sequence of UniProt P14061 (whole entry, looked up): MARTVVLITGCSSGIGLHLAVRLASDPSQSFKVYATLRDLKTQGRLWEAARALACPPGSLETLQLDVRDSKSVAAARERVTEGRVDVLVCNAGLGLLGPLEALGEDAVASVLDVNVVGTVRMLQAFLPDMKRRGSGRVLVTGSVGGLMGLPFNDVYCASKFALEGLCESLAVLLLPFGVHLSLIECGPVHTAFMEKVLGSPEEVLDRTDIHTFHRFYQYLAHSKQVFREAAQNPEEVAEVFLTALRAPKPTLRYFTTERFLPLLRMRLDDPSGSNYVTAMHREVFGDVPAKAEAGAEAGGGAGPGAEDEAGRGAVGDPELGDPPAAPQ
Sequence of UniProt P0AGE0 (whole entry, looked up): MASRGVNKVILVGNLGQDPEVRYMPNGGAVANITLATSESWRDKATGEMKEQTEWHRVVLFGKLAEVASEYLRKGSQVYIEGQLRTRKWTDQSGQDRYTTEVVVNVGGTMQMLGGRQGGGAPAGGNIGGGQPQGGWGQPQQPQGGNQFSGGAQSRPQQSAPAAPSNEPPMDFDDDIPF
Sequence of UniProt Q99436 (whole entry, looked up): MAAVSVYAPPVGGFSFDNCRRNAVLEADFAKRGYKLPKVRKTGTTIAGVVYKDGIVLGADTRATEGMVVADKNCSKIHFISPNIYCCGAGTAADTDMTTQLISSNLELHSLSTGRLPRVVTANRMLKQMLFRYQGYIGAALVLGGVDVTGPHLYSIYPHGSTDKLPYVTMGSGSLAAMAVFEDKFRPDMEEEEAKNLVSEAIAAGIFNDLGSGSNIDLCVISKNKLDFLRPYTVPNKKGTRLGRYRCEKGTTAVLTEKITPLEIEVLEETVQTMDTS
Sequence of UniProt P49720 (whole entry, looked up): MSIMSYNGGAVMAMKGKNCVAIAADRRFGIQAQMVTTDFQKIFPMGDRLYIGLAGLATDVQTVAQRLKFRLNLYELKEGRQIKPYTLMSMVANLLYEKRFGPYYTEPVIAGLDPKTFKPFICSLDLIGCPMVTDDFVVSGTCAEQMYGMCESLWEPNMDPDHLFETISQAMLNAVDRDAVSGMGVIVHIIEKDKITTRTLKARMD
Sequence of UniProt Q2M2I8 (whole entry, looked up): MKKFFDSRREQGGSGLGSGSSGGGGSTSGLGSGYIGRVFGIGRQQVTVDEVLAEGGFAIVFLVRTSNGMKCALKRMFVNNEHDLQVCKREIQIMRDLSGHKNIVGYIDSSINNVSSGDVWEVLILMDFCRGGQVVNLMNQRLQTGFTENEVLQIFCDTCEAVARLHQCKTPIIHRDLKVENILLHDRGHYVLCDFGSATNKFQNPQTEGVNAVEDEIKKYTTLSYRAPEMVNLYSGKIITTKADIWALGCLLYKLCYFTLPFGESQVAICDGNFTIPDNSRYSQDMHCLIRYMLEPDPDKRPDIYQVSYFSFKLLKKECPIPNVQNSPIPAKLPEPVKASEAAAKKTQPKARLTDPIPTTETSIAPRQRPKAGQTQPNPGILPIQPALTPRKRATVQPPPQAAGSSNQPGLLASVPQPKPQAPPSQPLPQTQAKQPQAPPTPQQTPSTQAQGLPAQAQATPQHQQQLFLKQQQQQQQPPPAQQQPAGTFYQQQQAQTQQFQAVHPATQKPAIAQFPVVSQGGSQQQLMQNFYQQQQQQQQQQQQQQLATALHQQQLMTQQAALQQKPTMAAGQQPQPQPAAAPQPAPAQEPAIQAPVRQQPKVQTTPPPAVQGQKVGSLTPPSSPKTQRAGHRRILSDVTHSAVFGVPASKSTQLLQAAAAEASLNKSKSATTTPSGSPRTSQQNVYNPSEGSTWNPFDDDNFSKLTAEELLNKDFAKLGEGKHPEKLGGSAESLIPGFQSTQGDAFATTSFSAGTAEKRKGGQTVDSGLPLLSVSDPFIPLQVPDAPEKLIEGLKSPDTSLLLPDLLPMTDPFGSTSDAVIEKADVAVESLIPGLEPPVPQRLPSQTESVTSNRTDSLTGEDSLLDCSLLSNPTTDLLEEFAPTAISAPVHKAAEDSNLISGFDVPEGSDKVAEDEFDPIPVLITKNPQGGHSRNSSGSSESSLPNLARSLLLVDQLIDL
Sequence of UniProt P45984 (whole entry, looked up): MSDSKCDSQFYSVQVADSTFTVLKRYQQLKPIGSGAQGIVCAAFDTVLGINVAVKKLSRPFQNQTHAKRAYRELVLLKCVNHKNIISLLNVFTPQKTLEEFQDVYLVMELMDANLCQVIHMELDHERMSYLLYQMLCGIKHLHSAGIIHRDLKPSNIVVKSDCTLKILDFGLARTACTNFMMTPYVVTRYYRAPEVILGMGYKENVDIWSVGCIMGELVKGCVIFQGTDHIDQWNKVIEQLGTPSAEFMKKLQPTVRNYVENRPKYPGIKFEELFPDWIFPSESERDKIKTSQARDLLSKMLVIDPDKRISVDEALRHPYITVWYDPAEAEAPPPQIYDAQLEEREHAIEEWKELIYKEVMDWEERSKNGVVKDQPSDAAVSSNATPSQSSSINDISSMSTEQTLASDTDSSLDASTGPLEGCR
Sequence of UniProt P37023 (whole entry, looked up): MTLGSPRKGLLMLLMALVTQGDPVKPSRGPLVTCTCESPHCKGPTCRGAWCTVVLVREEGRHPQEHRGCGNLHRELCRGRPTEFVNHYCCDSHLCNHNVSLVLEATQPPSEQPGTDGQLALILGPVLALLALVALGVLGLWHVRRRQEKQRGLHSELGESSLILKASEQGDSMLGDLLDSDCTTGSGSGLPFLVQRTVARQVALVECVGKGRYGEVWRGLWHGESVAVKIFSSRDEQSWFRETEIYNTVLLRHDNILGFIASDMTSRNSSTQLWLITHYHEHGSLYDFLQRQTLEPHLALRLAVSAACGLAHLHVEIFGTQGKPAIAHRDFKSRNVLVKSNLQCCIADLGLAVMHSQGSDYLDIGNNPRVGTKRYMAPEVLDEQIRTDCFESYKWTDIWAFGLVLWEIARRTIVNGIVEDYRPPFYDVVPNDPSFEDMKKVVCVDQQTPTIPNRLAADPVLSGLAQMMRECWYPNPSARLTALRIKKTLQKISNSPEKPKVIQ
Sequence of UniProt C7C422 (whole entry, looked up): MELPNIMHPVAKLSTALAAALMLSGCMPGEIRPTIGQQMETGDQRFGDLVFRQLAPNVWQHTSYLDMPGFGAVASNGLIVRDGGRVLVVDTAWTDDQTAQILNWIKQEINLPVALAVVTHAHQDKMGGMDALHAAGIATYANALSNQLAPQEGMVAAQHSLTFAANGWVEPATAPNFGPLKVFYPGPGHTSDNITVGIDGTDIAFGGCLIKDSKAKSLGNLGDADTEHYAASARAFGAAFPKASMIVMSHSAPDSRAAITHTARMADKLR
Sequence of UniProt Q08499 (whole entry, looked up): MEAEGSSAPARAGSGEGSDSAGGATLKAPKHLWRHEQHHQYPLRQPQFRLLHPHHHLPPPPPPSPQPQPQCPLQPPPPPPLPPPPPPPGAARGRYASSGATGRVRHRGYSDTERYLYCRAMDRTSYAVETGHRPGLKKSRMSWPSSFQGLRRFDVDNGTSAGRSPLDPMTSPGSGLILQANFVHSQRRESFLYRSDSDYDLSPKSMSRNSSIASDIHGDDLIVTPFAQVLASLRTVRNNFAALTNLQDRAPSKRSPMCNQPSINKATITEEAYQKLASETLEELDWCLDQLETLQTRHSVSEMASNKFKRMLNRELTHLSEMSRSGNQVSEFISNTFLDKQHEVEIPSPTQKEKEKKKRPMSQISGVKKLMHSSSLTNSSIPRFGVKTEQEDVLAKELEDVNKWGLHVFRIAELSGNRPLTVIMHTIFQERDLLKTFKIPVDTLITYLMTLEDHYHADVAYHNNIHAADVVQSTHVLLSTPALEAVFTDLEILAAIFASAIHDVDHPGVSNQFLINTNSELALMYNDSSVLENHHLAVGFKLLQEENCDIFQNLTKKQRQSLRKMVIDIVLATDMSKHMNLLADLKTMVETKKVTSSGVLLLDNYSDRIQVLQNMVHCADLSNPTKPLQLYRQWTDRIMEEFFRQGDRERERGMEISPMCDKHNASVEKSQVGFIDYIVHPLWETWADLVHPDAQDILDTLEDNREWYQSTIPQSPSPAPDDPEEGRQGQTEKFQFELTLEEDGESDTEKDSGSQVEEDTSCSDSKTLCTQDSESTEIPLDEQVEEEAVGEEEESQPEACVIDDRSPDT
Sequence of UniProt Q05097 (whole entry, looked up): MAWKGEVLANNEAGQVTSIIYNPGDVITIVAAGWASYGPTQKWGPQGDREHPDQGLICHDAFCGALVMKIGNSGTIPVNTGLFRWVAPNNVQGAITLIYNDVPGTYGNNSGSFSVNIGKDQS
Sequence of UniProt P28074 (whole entry, looked up): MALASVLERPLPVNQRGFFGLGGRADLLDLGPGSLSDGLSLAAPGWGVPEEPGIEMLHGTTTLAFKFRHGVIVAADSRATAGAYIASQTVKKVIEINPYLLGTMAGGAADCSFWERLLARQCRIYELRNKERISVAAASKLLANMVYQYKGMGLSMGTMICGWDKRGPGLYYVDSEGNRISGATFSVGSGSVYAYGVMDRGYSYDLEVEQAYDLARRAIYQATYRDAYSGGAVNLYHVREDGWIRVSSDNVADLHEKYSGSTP

Structure (SMILES) | target | test | test system | setting | IC50
Cc1cc(N2CC[C@@](C#N)(C3(C)CC3)C2=O)cc(C(=O)NCc2cc(F)cc(-c3cnn(C)c3)c2)n1 | 3',5'-cyclic-AMP phosphodiesterase 4D (PDE4D, Homo sapiens, UniProt Q08499) | enzyme activity, inhibitor | – | – | > 10 µM
CC[C@H](C)[C@H](NC(=O)[C@H](CCCNC(=N)N)NC(=O)[C@H](CC(N)=O)NC(=O)[C@H](C)NC(=O)[C@H](Cc1c[nH]cn1)NC(=O)[C@@H](NC(=O)[C@H](CCC(N)=O)NC(=O)[C@@H]1CCCN1C(=O)[C@@H](N)CC(=O)O)[C@@H](C)O)C(=O)N[C@@H](Cc1ccc(O)cc1)C(=O)N[C@@H](CCCNC(=N)N)C(=O)N[C@@H](CCSC)C(=O)N[C@H](C(=O)N[C@@H](CCCCN)C(=O)N[C@@H](CC(C)C)C(=O)N[C@@H](Cc1c[nH]c2ccccc12)C(=O)N[C@@H](CC(C)C)C(=O)NCC(=O)O)[C@@H](C)CC | Hsp90 | luciferase refolding, inhibitor | rabbit reticulocyte lysate | together with: heat-denatured luciferase | 38 ± 2.2 µM
N=C(N)NCCC[C@H](NC(=O)[C@H](CC(=O)O)NC(=O)[C@H](CC(N)=O)NC(=O)[C@H](CCCNC(=N)N)NC(=O)[C@@H]1CCCN1C(=O)[C@H](CCCCN)NC(=O)[C@H](CCCCN)NC(=O)[C@H](CCC(N)=O)NC(=O)[C@H](CC(=O)O)NC(=O)[C@@H](N)Cc1c[nH]c2ccccc12)C(=O)O | Neuropilin-1 (NRP1, Homo sapiens, UniProt O14786) | inhibitor, plate binding | – | 1 h, 25 °C | 28 µM
C=C(NC(=O)C(=C)NC(=O)c1csc(C2=NC3c4csc(n4)C4NC(=O)c5csc(n5)C(C(C)(O)C(C)O)NC(=O)C5CSC(=N5)C(=CC)NC(=O)C(C(C)O)NC(=O)c5csc(n5)C3(CC2)NC(=O)C(CO)NC(=O)C(=C)NC(=O)C(C)NC(=O)C(C(C)CC)NC2C=Cc3c(C(C)O)cc(nc3C2O)C(=O)OC4C)n1)C(N)=O (centres unmarked) | Proteasome Macropain subunit MB1 (PSMB5, Homo sapiens, UniProt P28074) | chymotrypsin-like activity, inhibitor | purified 20S proteasome | 15 min preincubation, 37 °C, together with: Suc-Leu-Leu-Val-Tyr-AMC substrate | 1.11 ± 0.06 µM
CCCc1nnc(-c2cccc(Nc3ncnn4ccc(CN5CCC(N)CC5)c34)c2)s1 | AP2-associated protein kinase 1 (AAK1, Homo sapiens, UniProt Q2M2I8) | enzyme activity, inhibitor | – | – | 0.054 µM
N#C/C(=C\c1ccc(O)c(O)c1)C(=O)c1ccc(O)c(O)c1 | Single-stranded DNA-binding protein (ssb, Escherichia coli, UniProt P0AGE0) | DNA binding, fluorescence polarization | – | together with: Cy5-dT15 DNA 5 nM | 1.2 ± 0.1 µM
C/C(=N\NC(N)=S)c1c(O)c2ccccc2oc1=O | Serine/threonine-protein kinase mTOR (MTOR, Homo sapiens, UniProt P42345) | enzyme activity, inhibitor | – | – | 1.39 µM
COc1ccc2c(c1)CC[C@H]1[C@@H]3[C@H](OCC(=O)N(C)C4CCCCC4)CC(=O)[C@@]3(C)CC[C@H]21 | 17-beta-hydroxysteroid dehydrogenase type 1 (HSD17B1, Homo sapiens, UniProt P14061) | enzyme activity, inhibitor, radiometric | – | – | 5.6 to 7 µM
COc1cc(F)cc(-c2nc3ccc(C(=O)NCCCN(C)C)cc3n2C2CCC2)c1 | Activin receptor type-1-like (ACVRL1, Homo sapiens, UniProt P37023) | target engagement in cells, BRET | – | – | > 30 µM
Cc1cc(NC(=O)c2cccc(-n3cc(NC(=O)Nc4ccccc4Cl)cn3)c2)ccn1 | Mitogen-activated protein kinase 9 (MAPK9, Homo sapiens, UniProt P45984) | enzyme activity, inhibitor | – | – | 0.486 µM
Cc1ccc(CNC(=O)[C@H](CCc2ccccc2)NC(=O)[C@H](CC(=O)NCC(C)(C)C)NC(=O)CCc2cccc(F)c2)cc1 | Proteasome subunit beta type-3/PSMB7 (Homo sapiens, UniProt P49720+Q99436) | inhibitor | – | – | > 100 µM
COC(=O)C(CS)N1C(=O)c2cccc3c(N(C)C)ccc(c23)C1=O (centres unmarked) | Metallo-beta-lactamase type 2 (blaNDM-1, Klebsiella pneumoniae, UniProt C7C422) | enzyme activity, inhibitor | – | pH 7 | 9.5 µM
Cc1[nH]c2ccccc2c1CCNC(=O)c1ccccc1F | ACTR2/ACTR3 (Bos taurus, UniProt A7MB62+P61157) | actin polymerization, inhibitor, pyrenyl-actin | – | 3 µM actin, 30% pyrenyl, together with: 5 nM Arp2/3 complex, 1 µM N-WASp-VCA | 17 µM
O=C(Cc1ccccc1O)N[C@@H](Cc1cn(CCNC(=O)c2ccc(S[C@@H]3O[C@H](CO)[C@H](O)[C@H](O)[C@H]3O)cc2)nn1)C(=O)NCCO | PA-I galactophilic lectin (lecA, Pseudomonas aeruginosa, UniProt Q05097) | ligand displacement, FP | – | – | 75.3 µM
